Measurements gathered from unrelated publications.
Values joined by “and” are separate records of one study, mostly repeats; a detail may differ. ± marks the error that the study gave.

SMILES	tested on	assay	system	setting	how to read	endpoint	result
COc1ccc2nc3cc(Cl)ccc3c(Nc3cc(CN4CCCC4)c(O)c(CN4CCCC4)c3)c2n1	–	–	mouse, blood	intraperitoneal, 14 mg/kg	–	lymphocyte count	6.25 10⁹/L
O=C(O)CCCOc1ccc(F)cc1-c1cc(-c2ccccc2C(F)(F)F)n(-c2ccccc2)n1	–	–	female Crl:CD(SD) rats	intravenous, 25 µg/kg, 14 d	–	fibrinogen	190 mg/dL and 201 mg/dL and 186 mg/dL and 213 mg/dL and 197 mg/dL
CCC[C@@](N)(CO)CCc1ccc(OCCCCCC(C)C)cc1	–	–	male hound dog, plasma	oral, 2.5 mg/kg, capsule, median	–	Tmax	5 h
CC(=O)c1c(C)c2cnc(Nc3ccc(C4CCN(CCS(C)(=O)=O)CC4)cn3)nc2n(C2CCCC2)c1=O	–	–	human, plasma	oral, 25 mg once daily, day 1, single dose	–	AUC(0-inf)	403 ng·h/mL
CCOC(=O)C1=C[C@@H](OC(CC)CC)[C@H](NC(C)=O)[C@@H](N)C1	–	non-compartmental analysis	Sprague-Dawley rats, male, plasma	oral, 30 mg/kg, alone	–	MRT	5.9 ± 1.8 h
O=S(=O)(Nc1ccccc1)c1ccc(NC(=S)Nc2ccccc2)cc1	–	–	mouse, female, blood	oral, 5 mg/kg daily, 14 days	–	mean corpuscular haemoglobin concentration	30.6 g/dL
C[C@@H]1NC(=O)[C@H](CCCCNC(=O)CO/N=C/C(=O)NCCCC[C@@H]2NC(=O)[C@@H](Cc3ccccc3)NC(=O)[C@H](CC(=O)O)NC(=O)CNC(=O)[C@H](CCCNC(=N)N)NC2=O)NC(=O)CNC(=O)[C@@H]2CCCN2C(=O)[C@H](CCCCNC(=O)CO/N=C/C(=O)NCCCC[C@@H]2NC(=O)[C@@H](Cc3ccccc3)NC(=O)[C@H](CC(=O)O)NC(=O)CNC(=O)[C@H](CCCNC(=N)N)NC2=O)NC(=O)[C@H](CCCCNC(=O)CN2CCCNCCNCCCNCC2)NC(=O)[C@H](CCCCNC(=O)CO/N=C/C(=O)NCCCC[C@@H]2NC(=O)[C@@H](Cc3ccccc3)NC(=O)[C@H](CC(=O)O)NC(=O)CNC(=O)[C@H](CCCNC(=N)N)NC2=O)NC(=O)CNC(=O)[C@@H]2CCCN2C(=O)[C@H](CCCCNC(=O)CO/N=C/C(=O)NCCCC[C@@H]2NC(=O)[C@@H](Cc3ccccc3)NC(=O)[C@H](CC(=O)O)NC(=O)CNC(=O)[C@H](CCCNC(=N)N)NC2=O)NC1=O [copper-64 labelled]	–	–	normal mice, muscle	intravenous, 0.74 MBq, 3 h post-injection	–	tissue uptake	0.38 ± 0.05 %ID/g
COc1ccc(Nc2cc(C(=O)NCCCN(C)Cc3ccccc3)c3ccccc3n2)cc1	Vero-E6	CellTiter-Glo ATP	–	concentration not given, 72 h, second round 5-point	reference: DMSO 0%, hyamine -100%, more negative, more toxic	cytotoxicity efficacy	-9.52%
C=CC(=O)Nc1cc(Nc2nccc(Nc3cc(Cl)c(F)cc3C(C)(C)O)n2)c(OC)cc1N1CC[C@@H](N(C)C)C1	–	treatment-emergent adverse events	human	oral, 400 mg, phase I clinical trial	–	incidence of blood creatinine increased	40%
C[C@H](NC(=O)c1c(C(F)F)nn(C)c1Oc1cccc(C(F)(F)F)c1)c1ccc(C(=O)O)cc1	–	–	human, plasma	250 mg, cycle 1 day 8, mean	–	AUC(0-t)	2270 ng·h/mL
C[C@@H](O)[C@@H]1NC(=O)CNC(=O)[C@H](Cc2c[nH]cn2)NC(=O)[C@H](Cc2c[nH]c3ccccc23)NC(=O)[C@H](CC(N)=O)NC(=O)CNC(=O)C[C@@H](C(=O)N[C@@H](Cc2c[nH]c3ccccc23)C(=O)N[C@@H](Cc2ccccc2)C(=O)N[C@@H](Cc2ccccc2)C(=O)N[C@@H](CC(N)=O)C(=O)N[C@@H](Cc2ccc(O)cc2)C(=O)N[C@@H](Cc2ccc(O)cc2)C(=O)N[C@@H](Cc2c[nH]c3ccccc23)C(=O)O)NC(=O)[C@@H]2CCCN2C(=O)[C@H](CO)NC1=O	–	–	male CD-1 mouse	intravenous, 3 mg/kg	–	Vss	0.491 L/kg
COc1ccc(-c2[nH]c3c(OP(=O)([O-])[O-])c(OC)ccc3c2C(=O)c2cc(OC)c(OC)c(OC)c2)cc1OC.[Na+].[Na+]	–	–	mouse, BALB/c female, 4T1-Luc tumour	intraperitoneal, 50 mg/kg	–	time to death	≤ 24 h
CC(C)[C@@H]1NC(=O)CNC(=O)[C@H](CC(N)=O)NC(=O)[C@H](CCCNC(=N)N)NC(=O)[C@H](Cc2ccc(O)cc2)NC(=O)[C@H](C(C)C)NC(=O)[C@@H](NC(=O)[C@@H](NC(=O)[C@H](CC(N)=O)NC(=O)[C@H](Cc2c[nH]c3ccccc23)NC(=O)[C@H](C)NC(=O)[C@H](Cc2ccccc2)NC(=O)CN)C(C)C)CSSC[C@@H](C(=O)N[C@@H](Cc2cnc[nH]2)C(=O)N[C@@H](CCCNC(=N)N)C(=O)N[C@@H](CCCNC(=N)N)C(=O)N[C@@H](C)C(=O)N[C@@H](CC(N)=O)C(N)=O)NC(=O)[C@H](C(C)C)NC(=O)[C@H](CCCNC(=N)N)NC1=O	–	–	ICR mice, blood	intraperitoneal, 10 mg/kg, day 5	–	mean corpuscular volume	40.2 ± 0.54 fL
COC[C@@H](CC(C)C)NC(=O)c1ccc(C)c(C)c1	–	micronucleus test	Hsd:ICR (CD-1) mice female, bone marrow	oral, 624 mg/kg, 24 h	–	micronucleated PCE per 1000 PCE	0.4
Cn1c(-c2ccc(C(N)=O)cc2F)nnc1C(C)(C)Oc1c(F)cc(Cl)cc1F	–	–	human	oral, 1 mg, single ascending dose	–	gastrointestinal disorder TEAE	16.7%
CC(C)C(=O)OC[C@H]1O[C@@H](n2ccc(NO)nc2=O)[C@H](O)[C@@H]1O	–	–	rat fetus dialysate	5 ng/mL, 6 h, room temperature, low concentration, together with: NHC 25 ng/mL	–	bench-top stability	97.2 ± 1.87%
[O-][S+]1CCc2nc(N3CCC(c4ncc(Cl)cn4)CC3)nc(NC3(CO)CCC3)c21 (stereo not drawn)	–	phase I trial	healthy male volunteers, blood	oral, 12 mg twice daily, after last treatment	–	creatine kinase	746 U/L

SMILES	tested on	assay	system	setting	how to read	endpoint	result
C[C@]1(CO)Cc2ncn(-c3ccc(C#N)c(Cl)c3)c2C(=O)O1	–	–	human	40 mg single dose	–	subjects with drug-related headache	0%
CCc1ccc(CC/C=C/c2ccc3c(c2)C(=O)CC3)cc1	–	–	Sprague-Dawley rat, female, serum	oral, 120 mg/kg/day, 14 days	–	sodium	140 mM
COc1ccc(-c2c(-c3ccc(C#N)c(F)c3)nc(N3CCC(N)CC3)n(C)c2=O)cc1F	–	refers to: Neutropenia	human patients	oral, dose not given, grade 3 to 4, dose escalation, NG	–	treatment-related adverse event incidence	8%
O=C(Nc1ccccc1)C1CCN(C(=O)Oc2cccnc2)CC1	–	psychotropic effects VAS	healthy women	100 mg	reference: pre-dose baseline, direction not given	change in Body score	2.1
COc1ccc(C[C@@H]2NC(=O)[C@H]([C@@H](C)O)NC(=O)[C@@H]3[C@@H]4CCN3C(=O)[C@@H]3Cc5cn(c6ccc(F)cc56)CCCCCCN(Cc5ccc(cc5)CCNC(=O)[C@]5(C)CCCN5C2=O)C(=O)CCC(=O)N[C@@H](C)C(=O)N[C@H](CNC(=O)CCCCC[N+](C)(C)C)C(=O)N[C@@H](Cc2cccc(c2)CNC(=O)CO4)C(=O)N3)cc1	–	refers to: gastroesophageal reflux disease	human	dose not given	–	participants with adverse event	9.7%
c1csc(CNc2cc[nH]n2)c1	–	micronucleus	CD-1 mouse Hsd:ICR(CD-1), male, bone marrow	oral, 250 mg/kg/day, 3 days	–	micronucleated PCE per 1000 PCE	1
COc1cccc(CNC(=O)C2CCN(Cc3cc4ccccc4n3Cc3ccccc3)CC2)c1OC	Vero-E6	CellTiter-Glo ATP	–	72 h, retest 8-point duplicates	reference: DMSO 0%, hyamine -100%, more negative, more toxic	maximum response	-4.81%
CN1CC[C@@H](c2c(O)cc(O)c3c(=O)cc(-c4ccc(C(F)(F)F)cc4Cl)oc23)[C@@H]1CO	–	–	human, relapsed/refractory hematologic malignancies	oral, dose not given	–	dyspnea incidence	15%
O=C(O)CNCP(=O)(O)O	–	ultrafiltration	cow milk whey	20 nM nominal in whole milk	–	final permeate concentration	20.2 nM
CC1(C)[C@H](C(=O)O[C@H](C#N)c2cccc(Oc3ccccc3)c2)[C@@H]1C=C(Br)Br	–	IVIVE scaling	human adult	–	–	hepatic intrinsic clearance	7420 L/h/kg liver
O=C1Nc2cc3[nH]nc(-c4ccncc4)c3cc2CN1Cc1ccccc1	–	CTCAE v4.03	advanced solid tumour patients	intravenous, 0.45 mg/kg, schedules 1/2	–	patients with abdominal pain	0%
C[C@@H](NC(=O)N1C(=O)[C@H](Cc2ccnc(N)c2)[C@H]1C(=O)O)C1CCCCC1	–	–	healthy adult Chinese volunteers	continuous intravenous infusion, 2.25 mg/kg/h, 5-day infusion, CTCAE 5.0 grading	–	incidence of AEs leading to discontinuation	25%
N=c1c2c(-c3ccccc3)c(-c3ccccc3)n(Cc3ccccc3)c2ncn1[C@H]1CC[C@H](O)CC1	–	–	cynomolgus monkey, male, plasma	intravenous, 0.5 mg/kg	–	CL as % of hepatic blood flow	< 5%
CO[C@H]1C[C@@H]2CC[C@@H](C)[C@@](O)(O2)C(=O)C(=O)N2CCCC[C@H]2C(=O)O[C@H]([C@H](C)C[C@@H]2CC[C@@H](OC(=O)NCCOCCOCCOCCOCCOCCOCCOCCOCCC(=O)N3CCc4cc(Cn5nc(-c6ccc7oc(N)nc7c6)c6c(N)ncnc65)ccc4C3)[C@H](OC)C2)C[C@@H](O)[C@H](C)/C=C(\C)[C@@H](O)[C@@H](OC)C(=O)[C@H](C)C[C@H](C)/C=C/C=C/C=C/1C	–	–	patients with advanced solid tumours	intravenous, 8 mg weekly, any grade	–	decreased appetite leading to dose reduction	0%
C[C@@H]1OC(=O)NN=C1c1ccc(-c2ccc(F)cc2)c(C(F)(F)F)c1	–	phase I trial, refers to: Presyncope all grades	human patients	5 mg once daily	–	patients with adverse event	0%
Cn1nc(NS(C)(=O)=O)c2c(Cl)ccc(-n3c([C@H](Cc4cc(F)cc(F)c4)NC(=O)Cn4nc(C(F)F)c5c4C(F)(F)[C@@H]4C[C@H]54)nc4nc(OCCC(F)(F)F)ccc4c3=O)c21	–	–	human	oral, dose not given	–	participants, with AEs, drug-related	15%

Excerpt of the above:
SMILES	tested on	assay	system	setting	how to read	endpoint	result
CCc1ccc(CC/C=C/c2ccc3c(c2)C(=O)CC3)cc1	–	–	Sprague-Dawley rat, female, serum	oral, 120 mg/kg/day, 14 days	–	sodium	140 mM
COc1ccc(-c2c(-c3ccc(C#N)c(F)c3)nc(N3CCC(N)CC3)n(C)c2=O)cc1F	–	refers to: Neutropenia	human patients	oral, dose not given, grade 3 to 4, dose escalation, NG	–	treatment-related adverse event incidence	8%
O=C(Nc1ccccc1)C1CCN(C(=O)Oc2cccnc2)CC1	–	psychotropic effects VAS	healthy women	100 mg	reference: pre-dose baseline, direction not given	change in Body score	2.1
COc1ccc(C[C@@H]2NC(=O)[C@H]([C@@H](C)O)NC(=O)[C@@H]3[C@@H]4CCN3C(=O)[C@@H]3Cc5cn(c6ccc(F)cc56)CCCCCCN(Cc5ccc(cc5)CCNC(=O)[C@]5(C)CCCN5C2=O)C(=O)CCC(=O)N[C@@H](C)C(=O)N[C@H](CNC(=O)CCCCC[N+](C)(C)C)C(=O)N[C@@H](Cc2cccc(c2)CNC(=O)CO4)C(=O)N3)cc1	–	refers to: gastroesophageal reflux disease	human	dose not given	–	participants with adverse event	9.7%
